Experimental data of several laboratories.
Each numbered part is a random draw from the data of one study; scales do not carry over between parts.

Block 1 — observed: enzyme activity; mode: inhibitor; concentration: 20 µM; notes: hit confirmation; endpoint: inhibition
Target: Replicase polyprotein 1ab, main protease (rep, Severe acute respiratory syndrome coronavirus 2, UniProt P0DTD1)
NCC1(CC(=O)O)CCCCC1: -19.5%
C[Se]CCC(N)C(=O)O (centres unmarked): -2.9%
Oc1c(I)cc(I)c(O)c1I: 98.9%
Nc1nnc(Sc2ncc([N+](=O)[O-])s2)s1: 100%

Block 2 — mode: inhibitor; concentration: 20 µM; endpoint: inhibition
Target: Replicase polyprotein 1ab, nsp13 helicase (rep, Severe acute respiratory syndrome coronavirus 2, UniProt P0DTD1)
COc1ccc(CNC(=O)c2sc3nc(C)cc(C)c3c2N)cc1: 7.77%
CO/N=C(\C(=O)N[C@@H]1C(=O)N2C(C(=O)O)=C(CSC(=O)c3ccco3)CS[C@H]12)c1csc(N)n1: 74.4%
Nc1ccc(S(N)(=O)=O)cc1: 1.14%
Cc1c(NC(=O)c2cccnc2)c(=O)n(-c2ccccc2)n1C: 1.88%
CC1(C)CCC[C@]2(C)[C@H]3CC(=O)O[C@]3(C)CC[C@@H]12: 13.8%
O=C(Nc1ccccc1)[C@@]12C[C@@H]1/C(=N\O)c1ccccc1O2: 6.21%
O=S(=O)(c1cccc2cnccc12)N1CCCNCC1: -16.2%
CNCC(O)c1ccc(OC(=O)C(C)(C)C)c(OC(=O)C(C)(C)C)c1 (centres unmarked): 8.53%
CN(C)CC[C@H](CSc1ccccc1)Nc1ccc(S(=O)(=O)NC(=O)c2ccc(N3CCN(Cc4ccccc4-c4ccc(Cl)cc4)CC3)cc2)cc1[N+](=O)[O-]: 10.5%
CO[C@H]1/C=C/O[C@@]2(C)Oc3c(C)c(O)c4c(O)c(c(/C=N/N5CCN(C)CC5)c(O)c4c3C2=O)NC(=O)/C(C)=C\C=C\[C@H](C)[C@H](O)[C@@H](C)[C@@H](O)[C@@H](C)[C@H](OC(C)=O)[C@@H]1C: 1.4%
CC(=O)OCC(=O)[C@H]1CC[C@H]2[C@@H]3CCC4=CC(=O)CC[C@]4(C)[C@H]3CC[C@]12C: 4.45%
CC(C)Nc1nc2cc(Cl)c(Cl)cc2n1[C@H]1O[C@@H](CO)[C@H](O)[C@@H]1O: 2.02%
O=C(O)c1ccc(NC2O[C@H](CO)[C@@H](O)[C@H](O)[C@@H]2O)cc1 (stereo in doubt): -5.15%
Cc1nccn1CCC(C(N)=O)(c1ccccc1)c1ccccc1: 4.34%
NC(=Nc1ccccc1)Nc1ccccc1: -18.5%
COc1ccc2[nH]c(I)c(CCNC(C)=O)c2c1: -0.45%
O=C(CCCCCCC(=O)Nc1ccccc1)NO: 6.19%
CC(C)S(=O)(=O)NC[C@H](C)c1ccc(-c2ccc(CCNS(C)(=O)=O)cc2)cc1: 6.66%
CC[N+](CC)(CC)CCC(O)(c1ccccc1)C1CCCCC1 (centres unmarked): 3.21%
O=c1[nH]c(=O)c2ccccc2o1: 10.4%
C=CC(=O)c1ccc2ccccc2c1: 99.1%
Cc1ccc(C)c(OCCCC(C)(C)C(=O)O)c1: 7.68%
CCCC1O[C@@H]2C[C@H]3[C@@H]4CCC5=CC(=O)C=C[C@]5(C)[C@H]4[C@@H](O)C[C@]3(C)[C@]2(C(=O)CO)O1 (some centres unmarked): 1.18%
O=C1NC(=O)c2cc(Nc3ccc(F)cc3)c(Nc3ccc(F)cc3)cc21: 1.38%
CCNC(=O)C[C@@H]1N=C(c2ccc(Cl)cc2)c2cc(OC)ccc2-n2c(C)nnc21: -2.23%

Block 3 — cell line: HEK-293T/ACE2; concentration: concentration not given; time: 16 (unit not given); baseline: vehicle; endpoint: viability
Cc1cc(/C=C/C#N)cc(C)c1Nc1ccnc(Nc2ccc(C#N)cc2)n1: 54.2%
Cc1cc(-c2ccc(/N=N/c3ccc4c(S(=O)(=O)O)cc(S(=O)(=O)O)c(N)c4c3O)c(C)c2)ccc1/N=N/c1ccc2c(S(=O)(=O)O)cc(S(=O)(=O)O)c(N)c2c1O: 101%
CC(=O)OCC(COC(C)=O)OC(C)=O: 100%

Block 4 — method: protein-binding microarray; form: double-stranded DNA, one strand shown; matrix: in vitro; concentration: 250 nM; notes: 60-bp whole probe; added: salmon DNA 0.4 mg/ml; baseline: random background probes; direction: higher = stronger binding; endpoint: log fluorescence; shared flanks, not repeated: GCCTAGCAC … GTCTTGATTCGCTTGACGCTGCTG
Target: Interferon regulatory factor 5, full length, phosphomimetic (IRF5, Homo sapiens, UniProt Q13568-2, residues 1-514, K96S/S451D/S453D/S456D/S462D)
TTAGGATTCGGACTGGGTTAGTGCTAG: 0.0941 z-score
TTAGGTTCCGTTTTCCTTTAGTGCTAG: 1.45 z-score
GGTGTTTTCTAAACCATTGTGTGCTAG: 0.508 z-score
TCACATTGCTGCCCTCAGACTGTGCTA: -0.0768 z-score
TTAGATCTCCTTCTCCTTTAGTGCTAG: 0.22 z-score
GACGGTACCCTTCTCCTGACGTGCTAG: -0.15 z-score
TCATTTCTGTTGTCTGTGACTGTGCTA: 3.62 z-score
TCAATACTCTTCCATGGAACTGTGCTA: 0.478 z-score

Block 5 — method: protein binding microarray; form: double-stranded DNA, one strand shown; matrix: in vitro; concentration: not given; baseline: not given; direction: higher = stronger binding; endpoint: E-score
Target: Histone acetyltransferase KAT6A, both winged helices, GST fusion (KAT6A, Homo sapiens, UniProt Q92794, residues 1-181)
Notes: 8-mer, flanks averaged, mean of 2 arrays, mostly near background
Target sequence (chain): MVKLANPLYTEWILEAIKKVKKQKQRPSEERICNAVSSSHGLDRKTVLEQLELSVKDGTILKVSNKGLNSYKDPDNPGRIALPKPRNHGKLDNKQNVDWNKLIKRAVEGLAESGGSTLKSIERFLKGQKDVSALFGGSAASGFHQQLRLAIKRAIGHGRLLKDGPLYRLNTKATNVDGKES
ACTCACCG: 0.0197
AGAAGTAC: -0.114
GACCGGGC: 0.153
TACATGGA: -0.133
AGGAGCCC: -0.0847
ATGGCTTC: -0.226
CAGAGCCC: -0.12
ACGGGAAT: 0.28

Block 6 — method: RNA Bind-n-Seq; form: RNA; matrix: in vitro; concentration: 365 nM; baseline: no-protein control; direction: higher = stronger binding; endpoint: RBNS enrichment (R)
Target: RNA binding protein fox-1 homolog 2, RRM domain, GST-SBP tag (RBFOX2, Homo sapiens, UniProt O43251-10, residues 100-194)
Notes: natural RNA segment, single round, ends assumed
Shared flanks, not repeated: GGGAGUUCUACAGUCCGACGAUC … UGGAAUUCUCGGGUGCCAA
Target sequence (chain): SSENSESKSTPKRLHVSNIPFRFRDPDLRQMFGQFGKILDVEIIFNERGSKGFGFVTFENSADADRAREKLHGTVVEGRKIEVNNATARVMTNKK
UGGGCCUCUAGGCUGUCUCUGUCCCCUCAGCUCCCCGACAUGCAUUUACUCUCUGCCGUGGGUCUGCAGUCGCUGCAACCUACCCUCUCUCUGCCUCAGCCUUACACCCA: 2.26
CAGUGUGUUAACUGCUUAUCAGCUAUUCAGACAUCUCCAUGGUUUCUCCAUGAAACUCUGUGGUUUCAUCAUUCCUUCUUAGUUGACCUGCACAGCUUGGUUAGACCUAG: 0.301
UUGGGCCCAGAAAGGGGUUUCCAGCUGGGGGCACGUGGACUGGUUCUGCUGUUUUUGGCAGUCGCUUUUCUGAAUUCUCCCCUCCGGCAGCCUUCCAGAGACUGAUCCUG: 0.306
GGUGCCAUUCAAGUCCUAGGGUGGGCUUCCAGCUGCCUUAAUAGAAGUACUCAAGUCUUUUGGGUAGUGAGCUGGAAAGCCUACAGGAAAAGAGGGGUACCUGUUUUCAU: 0.293
GAAUGACCAGGCCAGUGUUGUCACUGAGUGGUCCCCUGCUGGUUGGGAGUGAAGAGAAUCCAGGCUGGCAGAGCUGGAGCCAGUUGGGGAGCACGGUUCUGGGAGCUCUG: 1.57
UGAAAACCAGGCUGCAUGUUCUGCUAUGUAUGUGUGGGAAGCCUAGGUCCAGCCUGUGUAUGUUCUUUUGUUGGUUUGGAUUCUGAGAGUCCCAAGAGUCCAGGUUAGUU: 20.6
UUUACUGGAGUUCAUUGGUCAGUGCACAGUGCAGCCACAGGACUGACCGUCGUAGGCUUCCAUUUUUCCCAUCACCCACUGUAAAGGCUCAGAGUUGAACUACCACUGUG: 0.373
UUGAUUGAAAAUUUGGCAAAUUACAUUAUUUGUACUAGAAUUUGACCUAAAACACUUUUUAUGUUUGUUAAAAAUAUUUGCUUUUUAAAAUUUAGUUAAAAAUUGAAGUA: 0.652

Some of these lines once more (block 5):
ATGGCTTC: -0.226
AGGAGCCC: -0.0847
ACTCACCG: 0.0197
AGAAGTAC: -0.114
CAGAGCCC: -0.12
ACGGGAAT: 0.28
